Measurements pooled from the literature.
Each numbered part is a random draw from the data of one study; scales do not carry over between parts.
Chain of UniProt Q8NE63 (whole entry, looked up): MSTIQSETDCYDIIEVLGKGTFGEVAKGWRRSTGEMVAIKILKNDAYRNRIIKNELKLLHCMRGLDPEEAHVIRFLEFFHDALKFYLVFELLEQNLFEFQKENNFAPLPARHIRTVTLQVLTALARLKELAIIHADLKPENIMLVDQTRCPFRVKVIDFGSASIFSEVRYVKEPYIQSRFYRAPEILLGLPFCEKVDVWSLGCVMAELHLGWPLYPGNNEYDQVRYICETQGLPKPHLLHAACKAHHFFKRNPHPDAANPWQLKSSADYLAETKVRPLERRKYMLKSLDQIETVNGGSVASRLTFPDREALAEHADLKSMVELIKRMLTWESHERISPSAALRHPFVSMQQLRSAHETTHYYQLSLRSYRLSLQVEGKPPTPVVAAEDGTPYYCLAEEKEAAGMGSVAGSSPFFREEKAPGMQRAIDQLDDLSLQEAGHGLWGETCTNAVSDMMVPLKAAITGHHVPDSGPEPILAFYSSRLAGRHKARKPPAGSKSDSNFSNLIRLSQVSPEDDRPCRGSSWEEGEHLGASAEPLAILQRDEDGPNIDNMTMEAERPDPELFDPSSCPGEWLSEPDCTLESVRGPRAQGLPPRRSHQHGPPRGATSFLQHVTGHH
Chain of UniProt P22612 (whole entry, looked up): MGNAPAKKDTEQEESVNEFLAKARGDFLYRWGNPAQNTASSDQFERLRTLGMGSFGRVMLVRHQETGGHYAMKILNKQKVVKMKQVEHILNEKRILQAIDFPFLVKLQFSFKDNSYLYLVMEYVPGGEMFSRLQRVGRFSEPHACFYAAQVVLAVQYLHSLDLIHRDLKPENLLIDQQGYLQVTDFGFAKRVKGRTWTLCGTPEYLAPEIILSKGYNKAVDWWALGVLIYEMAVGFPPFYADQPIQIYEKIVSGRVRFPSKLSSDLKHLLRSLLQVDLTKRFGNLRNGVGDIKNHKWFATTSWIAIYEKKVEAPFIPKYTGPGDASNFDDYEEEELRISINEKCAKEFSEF
Chain of UniProt O15530 (whole entry, looked up): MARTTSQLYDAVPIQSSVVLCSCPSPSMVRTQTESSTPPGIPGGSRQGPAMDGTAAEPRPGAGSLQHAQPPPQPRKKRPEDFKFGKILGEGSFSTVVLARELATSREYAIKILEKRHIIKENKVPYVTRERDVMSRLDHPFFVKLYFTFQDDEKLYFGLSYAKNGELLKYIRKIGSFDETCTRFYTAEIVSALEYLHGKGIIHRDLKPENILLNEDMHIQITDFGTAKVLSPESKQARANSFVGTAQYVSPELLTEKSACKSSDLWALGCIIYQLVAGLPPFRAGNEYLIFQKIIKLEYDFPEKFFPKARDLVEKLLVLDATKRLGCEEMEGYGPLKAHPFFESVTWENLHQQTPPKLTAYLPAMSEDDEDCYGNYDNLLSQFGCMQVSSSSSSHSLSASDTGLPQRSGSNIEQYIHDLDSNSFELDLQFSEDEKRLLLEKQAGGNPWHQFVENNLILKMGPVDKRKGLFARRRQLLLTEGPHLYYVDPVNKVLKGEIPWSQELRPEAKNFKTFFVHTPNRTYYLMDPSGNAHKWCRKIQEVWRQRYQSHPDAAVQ
Chain of UniProt O75582 (whole entry, looked up): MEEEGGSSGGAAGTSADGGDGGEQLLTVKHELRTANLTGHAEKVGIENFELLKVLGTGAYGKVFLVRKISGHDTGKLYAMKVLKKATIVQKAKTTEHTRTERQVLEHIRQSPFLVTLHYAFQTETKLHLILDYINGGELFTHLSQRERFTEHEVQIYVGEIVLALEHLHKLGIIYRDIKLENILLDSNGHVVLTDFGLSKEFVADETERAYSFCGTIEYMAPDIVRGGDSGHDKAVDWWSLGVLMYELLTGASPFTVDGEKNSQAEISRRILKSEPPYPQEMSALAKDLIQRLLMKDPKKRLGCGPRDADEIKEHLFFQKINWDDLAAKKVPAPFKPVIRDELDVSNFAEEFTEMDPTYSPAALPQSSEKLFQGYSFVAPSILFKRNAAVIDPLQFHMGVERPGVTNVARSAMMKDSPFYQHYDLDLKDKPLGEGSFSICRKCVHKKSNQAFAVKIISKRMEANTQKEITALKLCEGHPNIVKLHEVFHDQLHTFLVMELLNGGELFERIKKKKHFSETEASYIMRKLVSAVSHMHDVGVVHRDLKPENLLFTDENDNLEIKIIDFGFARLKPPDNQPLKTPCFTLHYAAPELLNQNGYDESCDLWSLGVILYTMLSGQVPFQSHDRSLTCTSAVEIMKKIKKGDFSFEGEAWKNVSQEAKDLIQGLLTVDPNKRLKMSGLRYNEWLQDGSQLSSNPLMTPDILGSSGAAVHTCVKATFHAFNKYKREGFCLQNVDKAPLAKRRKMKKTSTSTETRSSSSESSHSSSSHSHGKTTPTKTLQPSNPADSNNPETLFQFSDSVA
Chain of UniProt O43781 (whole entry, looked up): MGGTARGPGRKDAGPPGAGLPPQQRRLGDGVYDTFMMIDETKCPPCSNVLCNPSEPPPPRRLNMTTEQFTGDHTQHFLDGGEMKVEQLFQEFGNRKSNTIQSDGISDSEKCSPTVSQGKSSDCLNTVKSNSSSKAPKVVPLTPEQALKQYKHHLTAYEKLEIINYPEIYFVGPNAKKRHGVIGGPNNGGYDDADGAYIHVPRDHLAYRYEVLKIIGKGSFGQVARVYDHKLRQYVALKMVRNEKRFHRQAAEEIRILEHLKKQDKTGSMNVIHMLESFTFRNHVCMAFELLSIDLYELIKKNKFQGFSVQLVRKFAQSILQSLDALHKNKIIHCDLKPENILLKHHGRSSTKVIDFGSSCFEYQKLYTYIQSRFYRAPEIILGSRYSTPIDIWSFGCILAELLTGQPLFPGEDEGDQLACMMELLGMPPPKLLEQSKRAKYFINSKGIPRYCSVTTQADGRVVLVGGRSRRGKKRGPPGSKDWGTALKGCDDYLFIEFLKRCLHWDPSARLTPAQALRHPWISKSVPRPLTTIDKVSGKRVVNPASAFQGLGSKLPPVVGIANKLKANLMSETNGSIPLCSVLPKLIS
Chain of UniProt Q9BXC0 (whole entry, looked up): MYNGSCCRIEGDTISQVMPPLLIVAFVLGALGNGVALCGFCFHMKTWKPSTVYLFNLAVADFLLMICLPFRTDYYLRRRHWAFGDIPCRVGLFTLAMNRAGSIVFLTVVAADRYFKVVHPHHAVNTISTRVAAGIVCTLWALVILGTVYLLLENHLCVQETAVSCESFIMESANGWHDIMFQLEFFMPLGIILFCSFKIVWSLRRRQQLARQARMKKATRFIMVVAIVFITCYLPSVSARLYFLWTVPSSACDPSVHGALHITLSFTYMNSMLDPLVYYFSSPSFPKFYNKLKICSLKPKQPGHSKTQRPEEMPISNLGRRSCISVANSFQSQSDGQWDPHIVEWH
Chain of UniProt P06493 (whole entry, looked up): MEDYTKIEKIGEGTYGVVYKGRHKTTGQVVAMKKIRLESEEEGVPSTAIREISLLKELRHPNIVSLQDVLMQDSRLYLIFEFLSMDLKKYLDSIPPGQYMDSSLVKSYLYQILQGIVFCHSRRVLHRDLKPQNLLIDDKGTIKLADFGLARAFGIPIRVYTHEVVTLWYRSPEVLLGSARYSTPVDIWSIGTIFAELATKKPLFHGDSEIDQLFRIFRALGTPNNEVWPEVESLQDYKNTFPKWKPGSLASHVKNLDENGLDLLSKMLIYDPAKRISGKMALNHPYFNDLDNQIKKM
Chain of UniProt P54762 (whole entry, looked up): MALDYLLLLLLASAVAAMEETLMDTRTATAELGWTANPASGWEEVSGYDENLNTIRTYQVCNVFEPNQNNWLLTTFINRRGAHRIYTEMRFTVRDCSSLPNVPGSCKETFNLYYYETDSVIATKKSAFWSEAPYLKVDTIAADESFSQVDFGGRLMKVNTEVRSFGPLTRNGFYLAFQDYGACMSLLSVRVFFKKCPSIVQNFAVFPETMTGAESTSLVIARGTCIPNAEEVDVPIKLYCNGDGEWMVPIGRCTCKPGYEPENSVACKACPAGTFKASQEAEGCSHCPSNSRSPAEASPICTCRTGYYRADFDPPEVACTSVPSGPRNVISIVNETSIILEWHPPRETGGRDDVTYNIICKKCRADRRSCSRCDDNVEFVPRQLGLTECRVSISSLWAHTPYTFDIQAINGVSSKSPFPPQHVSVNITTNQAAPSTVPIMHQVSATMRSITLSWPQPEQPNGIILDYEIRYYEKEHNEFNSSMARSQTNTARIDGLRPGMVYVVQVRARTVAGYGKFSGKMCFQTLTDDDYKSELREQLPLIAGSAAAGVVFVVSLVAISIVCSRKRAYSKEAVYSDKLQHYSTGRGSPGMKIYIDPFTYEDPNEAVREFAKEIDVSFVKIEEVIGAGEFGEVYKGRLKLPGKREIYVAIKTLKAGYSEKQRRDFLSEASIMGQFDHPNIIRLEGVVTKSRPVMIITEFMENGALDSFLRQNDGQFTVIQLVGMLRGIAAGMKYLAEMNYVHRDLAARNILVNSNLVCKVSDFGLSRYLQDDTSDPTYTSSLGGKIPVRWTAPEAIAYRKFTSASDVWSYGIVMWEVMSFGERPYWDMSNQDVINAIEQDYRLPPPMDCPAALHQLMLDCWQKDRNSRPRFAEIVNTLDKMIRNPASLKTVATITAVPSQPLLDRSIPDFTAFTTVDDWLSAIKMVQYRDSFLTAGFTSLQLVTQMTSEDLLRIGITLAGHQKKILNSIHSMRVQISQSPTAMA
Chain of UniProt Q13304 (whole entry, looked up): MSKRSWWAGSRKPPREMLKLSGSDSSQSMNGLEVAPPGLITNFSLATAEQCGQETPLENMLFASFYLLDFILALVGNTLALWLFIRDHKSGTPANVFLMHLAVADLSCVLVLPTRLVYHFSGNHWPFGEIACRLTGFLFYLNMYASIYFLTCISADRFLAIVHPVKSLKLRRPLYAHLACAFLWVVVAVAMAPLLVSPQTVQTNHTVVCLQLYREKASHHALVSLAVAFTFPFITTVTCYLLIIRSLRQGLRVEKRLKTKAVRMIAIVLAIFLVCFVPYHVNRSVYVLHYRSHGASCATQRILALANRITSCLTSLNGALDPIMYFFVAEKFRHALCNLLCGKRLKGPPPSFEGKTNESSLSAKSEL

Sample 1 — Structure (SMILES): CCN(c1nc(N)c(C(=O)N=C(N)N)nc1Cl)C(C)C; observed: β-arrestin recruitment; action: agonist; technique: PRESTO-Tango; concentration: 10 µM; baseline: untreated; measurement: fold over basal
Metabotropic glutamate receptor 7 (GRM7, Homo sapiens, UniProt Q14831): 1.01 fold
C-X-C chemokine receptor type 3 (CXCR3, Homo sapiens, UniProt P49682): 0.81
5-hydroxytryptamine receptor 2B (HTR2B, Homo sapiens, UniProt P41595): 0.89
Uracil nucleotide/cysteinyl leukotriene receptor (GPR17, Homo sapiens, UniProt Q13304): 0.88
G-protein coupled receptor 84 (GPR84, Homo sapiens, UniProt Q9NQS5): 1.21
Hydroxycarboxylic acid receptor 1 (HCAR1, Homo sapiens, UniProt Q9BXC0): 0.86 fold
Probable G-protein coupled receptor 63 (GPR63, Homo sapiens, UniProt Q9BZJ6): 0.73
5-hydroxytryptamine receptor 7 (HTR7, Homo sapiens, UniProt P34969): 0.49
Lutropin-choriogonadotropic hormone receptor (LHCGR, Homo sapiens, UniProt P22888): 1.16 fold

Sample 2 — organism: Sarcocystis neurona; observed: parasite growth; concentration: 10 µM; time: 96 h; baseline: untreated; measurement: log2 fold change
COc1cc([C@@H]2c3cc4c(cc3[C@H](O)[C@H]3COC(=O)[C@H]23)OCO4)cc(OC)c1OC: -0.69
CC1(C)O[C@@H]2C[C@H]3[C@@H]4C[C@H](F)C5=CC(=O)C=C[C@]5(C)[C@H]4[C@@H](O)C[C@]3(C)[C@]2(C(=O)CO)O1: 0.4
CCc1cccc2c3c([nH]c12)C(CC)(CC(=O)O)OCC3 (centres unmarked): 0.4
CC(=O)O[C@]1(C(C)=O)CC[C@H]2[C@@H]3C=C(C)C4=CC(=O)CC[C@]4(C)[C@H]3CC[C@@]21C: -0.11
S=c1[nH]cnc2nc[nH]c12: -0.66
Clc1ccc(COC(Cn2ccnc2)c2ccc(Cl)cc2Cl)c(Cl)c1 (centres unmarked): -1.13
NS(=O)(=O)c1cc2c(cc1C(F)(F)F)NCNS2(=O)=O: 0.27
O=C(NCCN1CCOCC1)c1ccc(Cl)cc1: 0.41
CC[C@]1(O)C[C@@H]2CN(CCc3c([nH]c4ccccc34)[C@@](C(=O)OC)(c3cc4c(cc3OC)N(C)[C@H]3[C@@](O)(C(N)=O)[C@H](O)[C@]5(CC)C=CCN6CC[C@]43[C@@H]65)C2)C1: -0.16
O=C1c2cccc3c2[C@H](CCC3)CN1[C@@H]1CN2CCC1CC2: -0.08
N[C@@H](Cc1cc(I)c(Oc2cc(I)c(O)c(I)c2)c(I)c1)C(=O)O: 0.44
CC(=O)[C@H]1CC[C@H]2[C@@H]3CCC4=CC(=O)CC[C@]4(C)[C@H]3CC[C@]12C: -0.16
Cc1ccc(-c2cc(C(F)(F)F)nn2-c2ccc(S(N)(=O)=O)cc2)cc1: 0.36
CC#C[C@]1(O)CC[C@H]2[C@@H]3CCC4=CC(=O)CCC4=C3[C@@H](c3ccc(N(C)C)cc3)C[C@@]21C: -0.13
CC(=O)/N=c1/sc(S(N)(=O)=O)nn1C: 0.25
COC(=O)C1=C(C)NC(C)=C(C(=O)OCCN(C)Cc2ccccc2)C1c1cccc([N+](=O)[O-])c1 (centres unmarked): 0.4
O=C1CC2(CCCC2)CC(=O)N1CCCCN1CCN(c2ncccn2)CC1: 0.32

Sample 3 — host: human; matrix: microsomes or S9; concentration: 2 µM; time: 0.5 h; measurement: remaining compound
COc1ccc(Cl)cc1NC(=O)c1cc(S(=O)(=O)N2CCc3ccccc32)cn1C: 11.6%
CN1CCC(=C2c3ccccc3CCc3sccc32)CC1: 73.6%
CC(=O)OC(CF)c1cc(F)ccc1S(N)(=O)=O (centres unmarked): 50%
Clc1ncccc1-c1nc2cc3c(cc2c2ccnn12)OCO3: 55.2%
O=c1[nH]ccn2nc(-c3ccc(F)cc3)c(CO)c12: > 100%
Cc1ccc(C(C)C)c(OCC(O)CN2CCN(CCO)CC2)c1 (centres unmarked): 80.6%
COc1cc(C(=O)N2CCN(C)CC2)c(N(C)S(C)(=O)=O)cc1OC: > 100%
Cc1oc(-c2[nH]ncc2C(=O)N(C)C)cc1S(=O)(=O)NCCCN(C)C: 81.2%
C/C=C/C=C/C(=O)N1CCN(C(C)C(N)=O)CC1 (centres unmarked): 79.2%
CCc1ccc(NC(=O)N2Cc3c(sc4c3CCCC4)-n3cccc3C2C(C)C)cc1 (centres unmarked): 23.9%
CN/C(=N/c1cc(C)nn1-c1ccccc1)c1ccc(F)cc1: 28.9%
COc1ccc(C(N)=O)cc1NC1C2CCOC2C12CCC2 (centres unmarked): 68.7%

Sample 4 — SMILES: CCc1[nH]c(-c2ccc(OC)cc2)nc1-c1ccncc1; observed: enzyme activity; action: inhibitor; concentration: 0.5 µM; baseline: control; measurement: remaining activity
Cyclin-dependent kinase 1, with cyclin B (CDK1, Homo sapiens, UniProt P06493): 102%
Ribosomal protein S6 kinase alpha-5 (RPS6KA5, Homo sapiens, UniProt O75582): 107%
Testis-specific serine/threonine-protein kinase 2 (TSSK2, Homo sapiens, UniProt Q96PF2): 98.7%
Serine/threonine-protein kinase 17A (STK17A, Homo sapiens, UniProt Q9UEE5): 96.1%
Cyclin-dependent kinase 4, with cyclin D3 (CDK4, Homo sapiens, UniProt P11802): 105%
Phosphorylase b kinase gamma catalytic chain, skeletal muscle/heart isoform (PHKG1, Homo sapiens, UniProt Q16816): 97%
Homeodomain-interacting protein kinase 2 (HIPK2, Homo sapiens, UniProt Q9H2X6): 93.6%
Mitogen-activated protein kinase kinase kinase kinase 4 (MAP4K4, Homo sapiens, UniProt O95819): 91.9%
cAMP-dependent protein kinase catalytic subunit gamma (PRKACG, Homo sapiens, UniProt P22612): 103%
Ephrin type-B receptor 1 (EPHB1, Homo sapiens, UniProt P54762): 104%
Homeodomain-interacting protein kinase 4 (HIPK4, Homo sapiens, UniProt Q8NE63): 90%
Dual specificity tyrosine-phosphorylation-regulated kinase 3 (DYRK3, Homo sapiens, UniProt O43781): 95.5%
Ribosomal protein S6 kinase alpha-6 (RPS6KA6, Homo sapiens, UniProt Q9UK32): 111%
MAP kinase-activated protein kinase 3 (MAPKAPK3, Homo sapiens, UniProt Q16644): 102%
Ephrin type-A receptor 4 (EPHA4, Homo sapiens, UniProt P54764): 105%
Tyrosine-protein kinase receptor UFO (AXL, Homo sapiens, UniProt P30530): 99.9%
Ephrin type-B receptor 4 (EPHB4, Homo sapiens, UniProt P54760): 90.3%
Tyrosine-protein kinase Blk (BLK, Homo sapiens, UniProt P51451): 105%
Tyrosine-protein kinase Srms (SRMS, Homo sapiens, UniProt Q9H3Y6): 106%
Calcium/calmodulin-dependent protein kinase type II subunit beta (CAMK2B, Homo sapiens, UniProt Q13554): 97.1%
3-phosphoinositide-dependent protein kinase 1 (PDPK1, Homo sapiens, UniProt O15530): 96%
Serine/threonine-protein kinase WNK3 (WNK3, Homo sapiens, UniProt Q9BYP7): 97.3%
Serine/threonine-protein kinase 16 (STK16, Homo sapiens, UniProt O75716): 108%

Single results of other studies
Cn1cncc1[C@](O)(COc1ccc(C#N)cc1-c1ccc(OC(F)(F)F)cc1)c1ccc(C#N)cc1 — viability (patient-derived normal-adjacent epithelium organoids; 1 µM; baseline: DMSO control): 43.6%

Excerpt of the above (sample 2):
NS(=O)(=O)c1cc2c(cc1C(F)(F)F)NCNS2(=O)=O: 0.27
O=C(NCCN1CCOCC1)c1ccc(Cl)cc1: 0.41
CC[C@]1(O)C[C@@H]2CN(CCc3c([nH]c4ccccc34)[C@@](C(=O)OC)(c3cc4c(cc3OC)N(C)[C@H]3[C@@](O)(C(N)=O)[C@H](O)[C@]5(CC)C=CCN6CC[C@]43[C@@H]65)C2)C1: -0.16
O=C1c2cccc3c2[C@H](CCC3)CN1[C@@H]1CN2CCC1CC2: -0.08
